# Measured values from different studies.
# Protocols differ between the studies behind these lines. Numbers after ± are the reported error.
Substance,test,test system,setting,how to read,quantity,result
[123I]c1cncc(OC[C@@H]2CCN2)c1,SPECT,"human, occipital lobe","intravenous bolus plus infusion, 7.6 mCi",baseline: tissue over plasma,tissue/plasma ratio,19.5
CC[C@H](C)[C@H](NC(=O)[C@H](CO)NC(=O)[C@H](C)NC(=O)[C@@H](NC(=O)CNC(=O)[C@H](CO)NC(=O)[C@@H](NC(=O)[C@@H](NC(=O)[C@H](Cc1c[nH]cn1)NC(=O)[C@@H]1CCCN1C(=O)[C@@H](NC(=O)[C@H](CC(C)C)NC(=O)[C@H](CO)NC(=O)[C@H](CC(C)C)NC(=O)[C@@H](N)Cc1ccccc1)[C@@H](C)CC)[C@@H](C)CC)C(C)C)C(C)C)C(=O)N[C@@H](C)C(=O)N[C@@H](CCCCN)C(=O)N[C@@H](Cc1c[nH]cn1)C(=O)N[C@@H](Cc1ccccc1)C(N)=O,UPLC-MS/MS,rat plasma,"0.05 µg/mL, three freeze-thaw cycles",,concentration found,50 ng/mL
NC(=O)c1nc(F)c[nH]c1=O,UV-Vis spectrophotometry,supercritical CO2,"120 min, 308 K, 21 MPa, 874.40 kg/m^3",,solubility,722 µg/mL
COc1ccc([C@@H]2CC(=O)c3c(O)cc(O[C@@H]4O[C@H](CO[C@@H]5O[C@@H](C)[C@H](O)[C@@H](O)[C@H]5O)[C@@H](O)[C@H](O)[C@H]4O)cc3O2)cc1O,,"New Zealand albino rabbit, sclera",,baseline: sclera over sclera-RPE and cornea,permeability ratio,~10 fold
CSCC[C@@H]1NC(=O)[C@H](CC(=O)O)NC(=O)CNC(=O)[C@H](CCCNC(=N)N)NC(=O)[C@H](C)NC(=O)[C@H](CCC(=O)O)NC(=O)[C@H](CCCNC(=N)N)NC(=O)[C@@H]2CSSC[C@@H]3NC(=O)[C@H](CO)NC(=O)[C@H]([C@@H](C)O)NC(=O)[C@@H]4CCCN4C(=O)[C@H](C)NC(=O)[C@H](Cc4c[nH]c5ccccc45)NC(=O)[C@H](CC(=O)O)NC(=O)CNC(=O)[C@H](CCCNC(=N)N)NC(=O)CNC(=O)[C@H](CCC(N)=O)NC(=O)[C@@H]4CCCN4C(=O)[C@@H](NC(=O)CNC(=O)C(C)F)CSSC[C@H](NC(=O)CNC(=O)[C@H](C)NC(=O)[C@H](CC(C)C)NC(=O)[C@H](CSSC[C@@H](C(=O)NCC(N)=O)NC(=O)[C@H]([C@@H](C)O)NC(=O)[C@H](CCCNC(=N)N)NC(=O)[C@@H]4CCCN4C1=O)NC(=O)[C@H](CC(=O)O)NC(=O)[C@H](CO)NC(=O)[C@H](CC(=O)O)NC(=O)[C@H](CCC(N)=O)NC(=O)[C@H](CO)NC3=O)C(=O)N[C@@H](C(C)C)C(=O)N2 (stereo partly drawn) [fluorine-18 labelled],,"nude mice U-87 MG xenograft, pancreas","intravenous, 0.5 h",,tissue uptake,0.32 ± 0.13 %ID/g
O[C@H]1CCCN[C@@H]1CCCn1cnc2c(Cl)c(Cl)ccc21,,"healthy human volunteers, plasma","oral, 100 mg, day 1, multiple ascending dose",,Vz/F,1440 L
Cc1cnc(C(=O)N[C@H]2CCCCC/C=C\[C@@H]3C[C@@]3(C(=O)NS(=O)(=O)C3CC3)NC(=O)[C@@H]3C[C@@H](Oc4nc5ccccc5c5ccccc45)CN3C2=O)cn1,,"healthy human volunteers, plasma","oral, dose not given, alone, digoxin interaction study",,Cmax,1210 ng/mL
CC(C)C(=O)OC[C@H]1O[C@@H](n2ccc(NO)nc2=O)[C@H](O)[C@@H]1O,microdialysis,"pregnant rat, blood, fetus, placenta, amniotic fluid","iv, 100 mg/kg, together with: NBMPR 10 mg/kg",baseline: compound alone,AUC,no effect
O=C(c1cccc(-c2nc3ccccc3[nH]2)n1)N1CCN(C(=O)c2cccc(-c3nc4ccccc4[nH]3)n2)CC1,LC-MS/MS,"rat, plasma","oral, 80 mg/kg",,apparent volume of distribution,3.38 L/kg
CCOCN(C(=O)CCl)c1c(C)cccc1CC,LC-MS/MS,herbicide solution,"2 h, 4 °C, together with: 365 nm UV exposure",,remaining amount,84.1 ± 23.3%
Cc1cc(C(C#N)c2ccc(Cl)cc2)c(Cl)cc1NC(=O)c1cc(I)cc(I)c1O (stereo not drawn),"HPLC, non-compartmental","Corriedale lambs, parasitized, plasma","oral, 10 mg/kg, together with: moxidectin 0.2 mg/kg oral",,MRT,26.9 ± 4.94 days
COc1ccc(C[C@@H]2NC(=O)[C@H]([C@@H](C)O)NC(=O)[C@@H]3[C@@H]4CCN3C(=O)[C@@H]3Cc5cn(c6ccc(F)cc56)CCCCCCN(Cc5ccc(cc5)CCNC(=O)[C@]5(C)CCCN5C2=O)C(=O)CCC(=O)N[C@@H](C)C(=O)N[C@H](CNC(=O)CCCCC[N+](C)(C)C)C(=O)N[C@@H](Cc2cccc(c2)CNC(=O)CO4)C(=O)N3)cc1,,"fasted healthy men, plasma","oral, 10 mg single dose, 24 h, with 1800 mg Labrasol, median",,plasma concentration,3.9 nM
colistin,dynamic light scattering,water,25 °C,,CMC,1.5 mM
CCCCCCCCCCCCCC[N+](C)(C)C,ultrafiltration,human serum,,,unbound fraction in blood,0.171
CCCCCOc1ccc(-c2ccc(-c3ccc(C(=O)N[C@H]4C[C@@H](O)[C@@H](O)NC(=O)[C@@H]5[C@@H](O)[C@@H](C)CN5C(=O)[C@H]([C@@H](C)O)NC(=O)[C@H]([C@H](O)[C@@H](O)c5ccc(O)cc5)NC(=O)[C@@H]5C[C@@H](O)CN5C(=O)[C@H]([C@@H](C)O)NC4=O)cc3)cc2)cc1,population PK model,patients aged sample A to < sample B years,"intravenous, 200 mg loading, 100 mg once daily, median, weight-corrected",,Vss,0.73 L/kg
Clc1ccc(Cl)c(-c2c(Cl)ccc(Cl)c2Cl)c1Cl,,"wild-type mice, female, whole blood","oral, 6.63 mg/kg single, 48 h, together with: racemic dose",,enantiomeric fraction,0.78 ± 0.01
C[C@H]1N=C(c2ccccc2F)c2cc(Br)ccc2-n2cnc(C(=O)O)c21,,"Swiss Webster mice, blood","oral, 25 mg/kg, 60 min, PEG400 2.5%, HPMC 98%",,concentration,322 nM
CC1(C)S[C@@H]2[C@H](NC(=O)[C@@H](C(=O)O)c3ccsc3)C(=O)N2[C@H]1C(=O)O,,"Sprague-Dawley rat, plasma","intravenous, 144 mg/kg",,t1/2,0.00875 ± 0.000417 days
Cn1cc(-c2cnc3cnn(S(=O)(=O)c4cnc5ccc(-c6cnn(C)c6)cn45)c3c2)cn1,,"healthy Chinese male subjects, plasma","oral, 300 mg single dose",baseline: high- or low-fat meal over fasted,Cmax and AUC ratio,~2 fold
CC(C)C[C@@H](NC(=O)[C@@H](Cc1ccccc1)NC(=O)[C@H](N)Cc1ccccc1)C(=O)N[C@H](CCCCN)C(=O)N1CCC(N)(C(=O)O)CC1,item: total radioactivity,human subjects on haemodialysis,"intravenous, time not given",,"total dose recovery, urine, feces and dialysate",83.8%
CN[C@@](C)(C[18F])C(=O)O,,"mouse, pancreas","30 min, tumour-bearing",,tracer uptake,54 %ID/g
CC(C)C[C@@H]1NC(=O)[C@@H](NC(=O)CN)CSSC[C@@H]2NC(=O)[C@@H]3CSSC[C@@H](C(=O)N[C@@H](CC(N)=O)C(=O)N[C@@H](Cc4ccccc4)C(=O)N[C@@H](CO)C(=O)N[C@@H](Cc4ccccc4)C(N)=O)NC(=O)[C@H](CC(C)C)NC(=O)[C@H](CCCCN)NC(=O)[C@H](Cc4ccccc4)NC(=O)[C@H](CC(C)C)NC(=O)[C@H](CCCCN)NC(=O)[C@H](CO)NC(=O)[C@H](CSSC[C@H](NC(=O)[C@H](CCCCN)NC(=O)[C@H](Cc4c[nH]c5ccccc45)NC(=O)[C@H](Cc4c[nH]c5ccccc45)NC(=O)[C@H](Cc4ccccc4)NC(=O)[C@H](CCC(=O)O)NC1=O)C(=O)N[C@@H](CC(N)=O)C(=O)N1CCC[C@H]1C(=O)N[C@@H](CC(N)=O)C(=O)N[C@@H](CC(=O)O)C(=O)N[C@@H](CC(=O)O)C(=O)N[C@@H](CCCCN)C(=O)N3)NC(=O)[C@H](CCCCN)NC(=O)[C@H](CC(C)C)NC(=O)[C@H](CCCCN)NC(=O)[C@@H]1CCCN1C(=O)[C@H](CCCNC(=N)N)NC2=O,"ultrafiltration, HPLC",saline without serum,"50 µM, 10 min",,free fraction,30%
O=c1[nH]c(Cc2ccccn2)nc2c1cnn2C1CCOCC1,,"healthy men, extensive metabolizers, plasma","oral, 100 mg single dose, tablet, geometric mean",,AUC(0-inf),1.46 µM·h
c1cc2ccc3cccc4ccc(c1)c2c34,HPLC-fluorescence,"Wistar rat, male, brain","oral, 4 mg/kg, 24 h",,tissue concentration,11.6 ± 0.9 ng/g
